{"data": "Results of several laboratories", "MAPK8": "Mitogen-activated protein kinase 8 (MAPK8, Homo sapiens, UniProt P45983)", "REEP5": "REEP5 (Homo sapiens, UniProt Q00765)", "note": "Values joined by “and” are separate records of one study, mostly repeats; a detail may differ. ± gives the spread as reported."}
{"SMILES": "O=C(Cc1ccc(OCc2ccccc2)cc1)NC1(C(=O)O)CCN(C(=O)c2ccc(-c3cccc(Cl)c3)cc2)CC1", "target": "ATM (Homo sapiens, UniProt Q13315)", "test": "enzyme activity, inhibitor", "conditions": "10 µM", "quantity": "activity vs control", "result": "88%"}
{"SMILES": "COC(=O)[C@@]1(C)C=C(C(=O)OC(C)(C)C)C(=O)CC1", "target": "MAPK8", "test": "D-peptide binding, inhibitor, FP peptide displacement", "conditions": "62.5 µM", "scale": "lower is stronger displacement", "quantity": "fraction bound", "result": 0.652}
{"SMILES": "Cc1cn(CC(=O)N(CC(=O)N[C@H]2COC[C@@H]2N(CC(=O)NCCOCCOCC(N)=O)C(=O)Cn2cnc3c(N)ncnc32)[C@H]2COC[C@@H]2NC(=O)CN(C(=O)Cn2cnc3c(N)ncnc32)[C@H]2COC[C@@H]2NC(=O)CN(C(=O)Cn2cnc3c(=O)[nH]c(N)nc32)[C@H]2COC[C@@H]2NC(=O)CN(C(=O)Cn2cc(C)c(=O)[nH]c2=O)[C@H]2COC[C@@H]2NC(=O)CN(C(=O)Cn2cnc3c(=O)[nH]c(N)nc32)[C@H]2COC[C@@H]2NC(=O)CN(C(=O)Cn2cc(C)c(=O)[nH]c2=O)[C@H]2COC[C@@H]2NC(=O)CN(C(=O)Cn2cnc3c(N)ncnc32)[C@H]2COC[C@@H]2NC(=O)CN(C(=O)Cn2cnc3c(=O)[nH]c(N)nc32)[C@H]2COC[C@@H]2N)c(=O)[nH]c1=O", "target": "complementary RNA", "test": "duplex formation, UV melting curve fit", "test system": "PBS", "conditions": "1 µM, fit parameter α 0.5", "quantity": "Tm", "result": "71.2 ± 0.1 °C"}
{"SMILES": "Cc1cc(=O)oc2cc(NC(=O)CCCCCCC(=O)NO)ccc12", "target": "HDAC8 (Homo sapiens, UniProt Q9BY41)", "test": "ITC", "test system": "Tris-HCl buffer", "conditions": "concentration not given, 288 K", "quantity": "binding stoichiometry", "result": 0.82}
{"SMILES": "CCOC(=O)[C@](CC)(CCCSCCOCCOCCNC(=O)CCCCCN1C(=CC=CC=CC2=[N+](C)c3ccc4ccccc4c3C2(C)C)C(C)(C)c2c1ccc1ccccc21)NC(=O)c1ccc(C2CC2)c(Cc2ccc(F)cc2)n1.[Cl-]", "target": "Cnr2 (Mus musculus, UniProt P47936)", "test": "cAMP, agonist", "quantity": "Emax", "result": "119%"}
{"SMILES": "COC(=O)[C@@]1(Cc2ccccc2)C=C(C(=O)OC(C)(C)C)C(=O)CC1", "target": "MAPK8", "test": "D-peptide binding, inhibitor, FP peptide displacement", "conditions": "250 µM", "scale": "lower is stronger displacement", "quantity": "fraction bound", "result": -0.0933}
{"SMILES": "C[N+]1(C)CCCC1", "target": "Chrnd/Chrna1/Chrne (Mus musculus, UniProt P02716+P04756+P20782, G173P/S470W)", "test": "binding, single-channel kinetics", "test system": "cell-attached patch", "conditions": "AChR wild type, P chain side", "quantity": "kon", "result": "1.23e+07 M⁻¹ s⁻¹"}
{"SMILES": "C[Si](C)(C)C[C@@H](CN)CC(=O)O", "target": "glycine receptor, rat", "test": "binding, radioligand binding", "conditions": "75 µM", "quantity": "inhibition", "result": "-7%"}
{"SMILES": "CC(C)C[C@@H]1NC(=O)[C@H](Cc2ccccc2)NC(=O)[C@H](CO)NC(=O)[C@H](Cc2ccccc2)NC(=O)CSC[C@@H](C(=O)N(C)[C@@H](Cc2ccccc2)C(N)=O)NC(=O)[C@H](Cc2c[nH]c3ccccc23)NC(=O)[C@H](Cc2c[nH]cn2)NC(=O)[C@H](Cc2ccc(O)cc2)NC1=O", "target": "STING1 (Homo sapiens, UniProt Q86WV6, H232R)", "test": "thermal stability, DSF", "conditions": "100 µM", "quantity": "ΔTm", "result": "7.92 °C"}
{"SMILES": "CCCCCC=CC=C1C(=O)C=CC1CC=CCCCC(=O)O (centres unmarked)", "target": "REEP5", "test": "competitive isoTOP-ABPP", "test system": "Ramos soluble proteome", "conditions": "100 µM, 60 min, with: iodoacetamide probe", "scale": "baseline: DMSO over compound-treated, higher = stronger cysteine blockade", "quantity": "isoTOP-ABPP competition ratio", "result": 6.3}
{"SMILES": "COc1cc(C2C(NC(=O)c3ccc(NC(=O)OC(C)(C)C)cc3)(C(=O)O)C(c3ccc(OC(=O)c4cccs4)c(OC)c3)C2(NC(=O)c2ccc(NC(=O)OC(C)(C)C)cc2)C(=O)O)ccc1OC(=O)c1cccs1 (centres unmarked)", "target": "GLP1R (Homo sapiens, UniProt P43220, Y145A)", "test": "cAMP accumulation, agonist", "conditions": "receptor mutant", "scale": "baseline: wild type", "quantity": "Emax", "result": "93.8 ± 4.12%"}
{"SMILES": "Cc1cc(NC(=O)[C@H](O)c2cc(F)cc(F)c2)ccc1-c1cnc(N)c(C(=O)NC(C)C)c1", "target": "RIOK2 (Homo sapiens, UniProt Q9BVS4)", "test": "binding, competition with immobilised ligand", "conditions": "10 µM", "quantity": "remaining binding", "result": "90%"}
{"SMILES": "CC(=O)N[C@H]1[C@H]([C@H](O)[C@H](O)CNC(=O)c2ccc(-c3ccccc3)cc2)O[C@@](OCc2cccc(Cl)c2Cl)(C(=O)O)C[C@@H]1O", "target": "CD22 (Homo sapiens, UniProt P20273)", "test": "isothermal titration calorimetry", "quantity": "ΔH", "result": "-11.55 ± 0.06 kcal/mol"}
{"SMILES": "C[C@@H]1C[C@H](Nc2ccccc2)c2cc(F)ccc2N1C(=O)c1ccc(Br)cc1", "target": "Ecdysone receptor (Aedes albopictus, UniProt Q9U3Y4)", "test": "ligand binding, inhibitor", "test system": "intact cells", "conditions": "with: [3H]ponasterone A", "scale": "direction not given", "quantity": "pIC50 Z-score", "result": -0.07}
{"SMILES": "N#CN1CC[C@H](C(=O)Nc2nc3c(s2)CN(C(=O)Cn2cc(CNC(=O)CCCC[C@@H]4SC[C@@H]5NC(=O)N[C@@H]54)nn2)CC3)C1", "target": "Isochorismatase domain-containing protein 1 (Homo sapiens, UniProt Q96CN7)", "test": "probe binding, affinity probe, neutravidin pull-down LC-MS/MS", "test system": "HEK293T, cell lysate", "conditions": "5 µM, 1 h, mean of three replicates, unit not given", "scale": "higher = more pulled down", "quantity": "iBAQ abundance", "result": "1.79e+08"}
{"SMILES": "C#CCOC(=O)[C@]1(C)C=C(C(=O)OC(C)(C)C)C(=O)CC1", "target": "MAPK1 (Homo sapiens, UniProt P28482)", "test": "enzyme activity, D-SENSOR", "conditions": "133.3 µM, single replicate", "quantity": "normalized kinase activity", "result": "0.123 and 0.105 and 0.0861"}
{"SMILES": "Cc1cc(C)c(CNC(=O)c2c(C)n(C(C)C3CCC(NC4(C)COC4)CC3)c3ccccc23)c(=O)[nH]1 (centres unmarked)", "target": "EZH2 (Homo sapiens, UniProt Q15910)", "test": "binding, TR-FRET", "conditions": "with: H3K27me3 activating peptide", "quantity": "residence time", "result": "1020 min"}
{"SMILES": "Cc1ccc(C[C@H](NC(=O)CN2CCCc3cc4cc(C(=O)NCCNC(=O)CCCC[C@@H]5SC[C@@H]6NC(=O)N[C@@H]65)c(=O)oc4cc32)C(=O)NC/C=C/S(=O)(=O)c2ccccc2)cc1", "target": "Rhodesain (rhodesain, Trypanosoma brucei rhodesiense, UniProt Q95PM0)", "test": "inhibitor", "conditions": "pH 5.5, 37 °C, with: Z-Phe-Arg-AMC", "quantity": "kinact/Ki", "result": "37000 M⁻¹ s⁻¹"}
{"SMILES": "CCCCC1(CC)C(=O)N(c2cccc(CN3CCN(Cc4ccc(Br)cc4)CC3)c2)C1=O", "target": "Dipeptidyl peptidase 8 (Homo sapiens, UniProt Q6V1X1)", "test": "enzyme activity, inhibitor", "conditions": "5 µM", "quantity": "activity vs control", "result": "19%"}
{"SMILES": "CN(C)c1ccc(-n2cc(COC(=O)[C@]3(C)C=C(C(=O)OC(C)(C)C)C(=O)CC3)nn2)cc1", "target": "MAPK8", "test": "D-peptide binding, inhibitor, FP peptide displacement", "conditions": "1.562 µM", "scale": "lower is stronger displacement", "quantity": "fraction bound", "result": 0.912}
{"SMILES": "Cn1c(=O)n(C2CCC(=O)NC2=O)c2ccc(C3CCN(CC(=O)Nc4cccc(CS(=O)(=O)N5CC[C@H](Nc6cccc(-c7sc(C(=O)O)c(OCC(=O)O)c7Cl)c6)CC5(C)C)c4)CC3)cc21 (some centres unmarked)", "target": "PTPN2 (Homo sapiens, UniProt P17706, E41K/R35E/R43E)", "test": "degrader, bio-layer interferometry", "conditions": "125 nM", "scale": "higher = more binding", "quantity": "BLI binding response", "result": "0.571 a.u."}
{"SMILES": "CCCCCC(O)/C=C/C=O (centres unmarked)", "target": "REEP5", "test": "competitive isoTOP-ABPP", "test system": "proteome, soluble, MDA-MB-231", "conditions": "100 µM, 60 min, with: iodoacetamide probe", "scale": "baseline: DMSO over compound-treated, higher = stronger cysteine blockade", "quantity": "isoTOP-ABPP competition ratio", "result": 8.9}
{"SMILES": "COC(=O)[C@@]1(C)C=C(C(=O)Nc2cccc(C(=O)Nc3ccc(Nc4nccc(-c5cccnc5)n4)c(C)c3)c2)C(=O)CC1", "target": "MAPK14 (Homo sapiens, UniProt Q16539)", "test": "enzyme activity, inhibitor", "conditions": "0.02032 µM, unit not given", "scale": "baseline: vehicle", "quantity": "remaining activity", "result": "1.12 and 1.03 and 1.26"}
{"SMILES": "O=C1c2sc(-c3ccc(N4CCC(CO)CC4)nc3F)nc2CCN1c1cccnc1", "target": "TAR DNA-binding protein 43, aggregated (TARDBP, Homo sapiens, UniProt Q13148)", "test": "binding, surface plasmon resonance", "test system": "brain-derived TDP-43 aggregates", "conditions": "4.69 nM", "quantity": "SPR response", "result": "1.47 RU"}
{"SMILES": "O=C(O)[C@H]1O[C@@H](O[C@H]2[C@H](O)[C@H](O)[C@H](O[C@H]3[C@H](O)[C@H](O)[C@H](O)O[C@@H]3C(=O)O)O[C@H]2C(=O)O)[C@@H](O)[C@@H](O)[C@@H]1O[C@@H]1O[C@@H](C(=O)O)[C@@H](O)[C@H](O)[C@@H]1O", "target": "Beta-lactoglobulin (LGB, Bos taurus, UniProt P02754, A134V/G80D)", "test": "isothermal titration calorimetry", "conditions": "concentration not given, pH 4.00, 37 °C, 50 mM KH2PO4", "scale": "ligand per protein", "quantity": "binding stoichiometry", "result": 4.1}
{"SMILES": "CC[C@H](C)[C@H](NC(=O)[C@@H](NC(=O)[C@@H](NC(=O)[C@@H](NC(=O)[C@H](CCCNC(=N)N)NC(=O)[C@H](CCC(=O)O)NC(=O)[C@H](CCC(=O)O)NC(=O)[C@H](C)NC(=O)[C@H](CCC(=O)O)NC(=O)CNC(=O)[C@H](C)NC(=O)CN)C(C)C)C(C)C)C(C)C)C(=O)N[C@@H](CC(=O)O)C(=O)N[C@@H](CC(=O)O)C(=O)N[C@@H](CC(=O)O)C(=O)N[C@@H](CCC(=O)O)C(=O)N[C@@H](CC(=O)O)C(=O)N[C@@H](CC(=O)O)C(=O)N[C@@H](CC(=O)O)C(=O)N[C@@H](C)C(=O)N[C@@H](CCC(=O)O)C(=O)N[C@@H](CC(N)=O)C(=O)N[C@@H](CO)C(=O)N[C@@H](CO)C(=O)N[C@@H](CO)C(=O)N[C@@H](CCCNC(=N)N)C(=O)N[C@@H](Cc1ccc(O)cc1)C(=O)O", "target": "Small ubiquitin-related modifier 2 (Homo sapiens, UniProt P61956, C48A)", "test": "isothermal titration calorimetry", "conditions": "pH 7.4, SUMO2 construct", "quantity": "-TΔS", "result": "-8.34 ± 0.02 kcal/mol"}
{"note": "Repeated from above:"}
{"SMILES": "CC(C)C[C@@H]1NC(=O)[C@H](Cc2ccccc2)NC(=O)[C@H](CO)NC(=O)[C@H](Cc2ccccc2)NC(=O)CSC[C@@H](C(=O)N(C)[C@@H](Cc2ccccc2)C(N)=O)NC(=O)[C@H](Cc2c[nH]c3ccccc23)NC(=O)[C@H](Cc2c[nH]cn2)NC(=O)[C@H](Cc2ccc(O)cc2)NC1=O", "target": "STING1 (Homo sapiens, UniProt Q86WV6, H232R)", "test": "thermal stability, DSF", "conditions": "100 µM", "quantity": "ΔTm", "result": "7.92 °C"}
{"SMILES": "COC(=O)[C@@]1(Cc2ccccc2)C=C(C(=O)OC(C)(C)C)C(=O)CC1", "target": "MAPK8", "test": "D-peptide binding, inhibitor, FP peptide displacement", "conditions": "250 µM", "scale": "lower is stronger displacement", "quantity": "fraction bound", "result": -0.0933}
{"SMILES": "C[Si](C)(C)C[C@@H](CN)CC(=O)O", "target": "glycine receptor, rat", "test": "binding, radioligand binding", "conditions": "75 µM", "quantity": "inhibition", "result": "-7%"}
{"SMILES": "C[C@@H]1C[C@H](Nc2ccccc2)c2cc(F)ccc2N1C(=O)c1ccc(Br)cc1", "target": "Ecdysone receptor (Aedes albopictus, UniProt Q9U3Y4)", "test": "ligand binding, inhibitor", "test system": "intact cells", "conditions": "with: [3H]ponasterone A", "scale": "direction not given", "quantity": "pIC50 Z-score", "result": -0.07}
